Measurements from different studies.
Each numbered part is a random draw from the data of one study; scales do not carry over between parts. Values joined by “and” are separate records of one study, mostly repeats; a detail may differ. In brackets after ≈: the same amount, converted by molar mass.
Sequence of UniProt P35372 (whole entry, looked up): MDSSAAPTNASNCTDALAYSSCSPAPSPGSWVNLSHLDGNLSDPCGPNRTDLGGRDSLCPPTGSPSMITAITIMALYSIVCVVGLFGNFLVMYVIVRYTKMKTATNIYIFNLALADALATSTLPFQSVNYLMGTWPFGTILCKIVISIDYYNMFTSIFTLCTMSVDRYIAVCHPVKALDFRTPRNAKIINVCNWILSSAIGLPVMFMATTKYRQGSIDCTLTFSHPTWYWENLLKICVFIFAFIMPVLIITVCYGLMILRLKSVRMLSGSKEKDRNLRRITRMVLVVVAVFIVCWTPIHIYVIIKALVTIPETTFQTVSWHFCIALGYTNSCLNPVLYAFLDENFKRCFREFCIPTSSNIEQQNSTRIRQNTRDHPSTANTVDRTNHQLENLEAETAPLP
Sequence of UniProt Q13422 (whole entry, looked up): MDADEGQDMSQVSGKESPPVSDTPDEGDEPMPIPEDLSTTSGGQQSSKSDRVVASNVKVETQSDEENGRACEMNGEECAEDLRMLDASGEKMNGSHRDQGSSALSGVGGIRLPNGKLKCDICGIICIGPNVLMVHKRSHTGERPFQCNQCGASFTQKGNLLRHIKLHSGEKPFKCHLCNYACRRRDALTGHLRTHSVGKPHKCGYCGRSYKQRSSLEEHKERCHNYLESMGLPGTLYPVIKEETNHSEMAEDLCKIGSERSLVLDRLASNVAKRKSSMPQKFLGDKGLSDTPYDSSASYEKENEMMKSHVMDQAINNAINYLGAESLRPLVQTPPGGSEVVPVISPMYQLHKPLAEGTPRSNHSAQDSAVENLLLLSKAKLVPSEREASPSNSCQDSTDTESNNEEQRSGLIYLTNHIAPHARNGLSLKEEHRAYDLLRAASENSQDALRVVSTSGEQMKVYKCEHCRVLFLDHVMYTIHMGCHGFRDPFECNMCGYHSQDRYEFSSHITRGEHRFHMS
Sequence of UniProt Q9UKT9 (whole entry, looked up): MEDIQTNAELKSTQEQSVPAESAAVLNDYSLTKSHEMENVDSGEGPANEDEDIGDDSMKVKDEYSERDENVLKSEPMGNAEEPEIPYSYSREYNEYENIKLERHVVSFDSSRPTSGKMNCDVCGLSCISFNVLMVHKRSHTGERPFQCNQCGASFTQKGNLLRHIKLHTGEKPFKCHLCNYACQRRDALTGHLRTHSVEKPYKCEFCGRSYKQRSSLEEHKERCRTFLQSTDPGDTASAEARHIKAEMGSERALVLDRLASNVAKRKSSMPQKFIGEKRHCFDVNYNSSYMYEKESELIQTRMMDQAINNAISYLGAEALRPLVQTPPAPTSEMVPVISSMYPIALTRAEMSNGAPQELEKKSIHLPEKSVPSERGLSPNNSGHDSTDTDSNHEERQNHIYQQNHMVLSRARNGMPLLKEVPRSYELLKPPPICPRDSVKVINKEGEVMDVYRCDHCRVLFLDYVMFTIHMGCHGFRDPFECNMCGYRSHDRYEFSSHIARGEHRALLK
Sequence of UniProt Q9UJQ4 (whole entry, looked up): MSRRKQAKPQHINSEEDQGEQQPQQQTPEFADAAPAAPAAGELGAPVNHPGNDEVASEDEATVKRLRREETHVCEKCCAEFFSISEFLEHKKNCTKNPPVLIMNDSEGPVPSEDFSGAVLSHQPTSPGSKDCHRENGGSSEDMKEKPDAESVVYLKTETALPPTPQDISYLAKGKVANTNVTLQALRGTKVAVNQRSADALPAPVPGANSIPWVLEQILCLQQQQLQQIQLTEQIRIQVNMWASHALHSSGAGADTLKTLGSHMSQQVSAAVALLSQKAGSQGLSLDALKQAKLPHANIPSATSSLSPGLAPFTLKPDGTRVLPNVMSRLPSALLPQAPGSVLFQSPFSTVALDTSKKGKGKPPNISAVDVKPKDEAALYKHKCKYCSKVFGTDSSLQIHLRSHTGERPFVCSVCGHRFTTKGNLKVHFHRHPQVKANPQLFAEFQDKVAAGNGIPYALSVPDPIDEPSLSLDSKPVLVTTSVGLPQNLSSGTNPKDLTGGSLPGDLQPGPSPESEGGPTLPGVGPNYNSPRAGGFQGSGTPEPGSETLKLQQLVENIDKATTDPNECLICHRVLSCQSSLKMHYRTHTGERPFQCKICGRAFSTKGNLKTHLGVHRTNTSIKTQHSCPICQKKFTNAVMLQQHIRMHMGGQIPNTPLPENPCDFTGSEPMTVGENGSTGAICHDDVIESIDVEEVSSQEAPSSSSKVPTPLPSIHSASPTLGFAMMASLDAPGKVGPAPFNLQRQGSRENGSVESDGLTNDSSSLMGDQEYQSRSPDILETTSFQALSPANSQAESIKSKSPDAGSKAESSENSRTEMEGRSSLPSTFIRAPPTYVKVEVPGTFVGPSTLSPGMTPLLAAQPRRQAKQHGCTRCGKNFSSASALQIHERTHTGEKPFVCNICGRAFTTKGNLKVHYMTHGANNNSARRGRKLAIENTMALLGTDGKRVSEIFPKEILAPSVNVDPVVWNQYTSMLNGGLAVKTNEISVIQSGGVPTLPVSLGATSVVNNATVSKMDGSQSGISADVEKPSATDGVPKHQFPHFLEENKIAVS
Sequence of UniProt P41143 (whole entry, looked up): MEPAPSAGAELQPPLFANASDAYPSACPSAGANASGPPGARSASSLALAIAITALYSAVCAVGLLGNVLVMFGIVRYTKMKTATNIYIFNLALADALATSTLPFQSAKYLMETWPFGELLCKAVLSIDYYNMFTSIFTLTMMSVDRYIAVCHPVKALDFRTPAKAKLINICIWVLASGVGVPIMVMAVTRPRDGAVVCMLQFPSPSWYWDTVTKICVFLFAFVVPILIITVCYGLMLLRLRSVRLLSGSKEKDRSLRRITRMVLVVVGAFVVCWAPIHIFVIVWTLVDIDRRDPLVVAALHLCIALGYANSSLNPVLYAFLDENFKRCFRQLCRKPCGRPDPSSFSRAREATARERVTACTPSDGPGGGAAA

Series 1
SMILES: CCCCC[C@@H]1CC(=O)N[C@@H](C(C)C)C(=O)N[C@H](CCC(=O)O)C(=O)N[C@@H](CCCNC(=N)N)C(=O)NCC(=O)N2CCC[C@H]2C(=O)N[C@@H](CC(C)C)C(=O)N[C@H](CCC(N)=O)C(=O)N[C@@H](CCC(=O)O)C(=O)N[C@H](Cc2ccc(O)cc2)C(=O)N[C@H](Cc2c[nH]c3ccccc23)C(=O)NCCCC(=O)O1
Organism: Staphylococcus aureus
Strain: USA300
setting | MIC
with: menaquinone 0.125 µg/mL | 4 µg/mL (≈ 2.69 µM)
with: menaquinone 4 µg/mL | 32 µg/mL (≈ 21.5 µM)
with: menaquinone 0.0625 µg/mL | 4 µg/mL (≈ 2.69 µM)

Series 2
SMILES: Cn1cc(-c2cccc(CN3CCC4(CC3)COc3c4ccc4c3CN([C@H]3CCC(=O)NC3=O)C4=O)c2)cn1
Mode: degrader
CSNK1A1: Casein kinase I isoform alpha (CSNK1A1, Homo sapiens, UniProt P48729)
Sequence of UniProt P48729 (whole entry, looked up): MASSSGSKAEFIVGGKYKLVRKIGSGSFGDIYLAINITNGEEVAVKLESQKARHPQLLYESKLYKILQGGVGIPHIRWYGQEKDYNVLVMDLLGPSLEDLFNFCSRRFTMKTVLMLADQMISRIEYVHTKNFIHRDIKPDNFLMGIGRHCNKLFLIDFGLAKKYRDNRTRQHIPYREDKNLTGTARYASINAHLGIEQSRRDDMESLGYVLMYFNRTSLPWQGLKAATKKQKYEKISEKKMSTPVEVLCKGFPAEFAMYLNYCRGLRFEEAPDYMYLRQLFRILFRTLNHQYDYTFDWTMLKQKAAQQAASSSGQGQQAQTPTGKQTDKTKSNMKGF
CRBN/Zinc finger protein Helios: CRBN/Zinc finger protein Helios (Homo sapiens, UniProt Q96SW2+Q9UKS7)
Sequence of UniProt Q9UKS7 (whole entry, looked up): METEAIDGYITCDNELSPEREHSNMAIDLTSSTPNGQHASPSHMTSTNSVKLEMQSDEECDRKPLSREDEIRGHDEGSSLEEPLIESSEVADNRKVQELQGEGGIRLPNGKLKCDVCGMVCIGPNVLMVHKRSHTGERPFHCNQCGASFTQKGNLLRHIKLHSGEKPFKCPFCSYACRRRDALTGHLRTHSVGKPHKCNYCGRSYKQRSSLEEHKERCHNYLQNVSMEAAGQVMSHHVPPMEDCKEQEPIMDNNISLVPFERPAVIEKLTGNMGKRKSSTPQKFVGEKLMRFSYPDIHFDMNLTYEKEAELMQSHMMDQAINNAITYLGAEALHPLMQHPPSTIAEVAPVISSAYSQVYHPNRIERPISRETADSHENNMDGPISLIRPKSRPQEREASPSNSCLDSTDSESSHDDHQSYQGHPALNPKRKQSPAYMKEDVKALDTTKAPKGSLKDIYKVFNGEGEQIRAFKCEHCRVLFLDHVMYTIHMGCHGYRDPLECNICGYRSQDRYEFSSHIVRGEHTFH
Sequence of UniProt Q96SW2 (whole entry, looked up): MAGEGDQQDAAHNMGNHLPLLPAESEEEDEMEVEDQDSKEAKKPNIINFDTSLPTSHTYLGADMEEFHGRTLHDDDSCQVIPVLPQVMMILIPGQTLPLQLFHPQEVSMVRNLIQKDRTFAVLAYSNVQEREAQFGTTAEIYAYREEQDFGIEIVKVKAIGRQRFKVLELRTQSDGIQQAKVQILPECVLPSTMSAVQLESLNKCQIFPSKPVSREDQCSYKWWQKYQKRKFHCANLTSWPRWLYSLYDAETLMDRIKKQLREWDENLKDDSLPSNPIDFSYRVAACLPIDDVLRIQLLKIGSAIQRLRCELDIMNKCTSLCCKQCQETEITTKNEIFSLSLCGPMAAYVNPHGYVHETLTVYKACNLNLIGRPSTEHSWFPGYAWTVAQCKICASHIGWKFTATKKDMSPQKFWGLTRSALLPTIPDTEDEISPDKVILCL
target | test | system | setting | remaining protein
DNA-binding protein Ikaros (Homo sapiens, UniProt Q13422) | HiBiT | HEK293 | 3333.33 nM | 91.1% and 90.3%
Zinc finger protein Aiolos (Homo sapiens, UniProt Q9UKT9) | HiBiT | HEK293 | 1.524 nM | 97% and 98.1%
CSNK1A1 | HiBiT | HEK293 | 13.72 nM | 103% and 101%
CRBN/Zinc finger protein Helios | flow cytometry | primary human regulatory T cells | 0.1524 nM, 3 h | 102% and 98.1%
CRBN/Zinc finger protein Helios | flow cytometry | primary human regulatory T cells | 333.3 nM, 6 h | 9.56% and 5.63%
CSNK1A1 | HiBiT | HEK293 | 1111.11 nM | 99.6% and 93.7%
CRBN/Zinc finger protein Helios | flow cytometry | primary human regulatory T cells | 0.05081 nM, 6 h | 98.7% and 102%
CRBN/Zinc finger protein Helios | flow cytometry | primary human regulatory T cells | 1.372 nM, 3 h | 107% and 98.5%
CRBN/Zinc finger protein Helios | flow cytometry | primary human regulatory T cells | 1000 nM, 3 h | 29.7% and 20%
CRBN/Zinc finger protein Helios | flow cytometry | Jurkat | 12 nM | 58% and 66.9%
CRBN/Zinc finger protein Helios | flow cytometry | Jurkat | 4.1 nM | 77% and 78.9%
CRBN/Zinc finger protein Helios | flow cytometry | Jurkat | 111 nM | 39.1% and 45.3%
Sal-like protein 4 (SALL4, Homo sapiens, UniProt Q9UJQ4) | HiBiT | HEK293 | 10000 nM | 65% and 78%
CSNK1A1 | HiBiT | HEK293 | 41.15 nM | 104% and 106%

Series 3
Structure (SMILES): Cc1c(NC(=O)c2cccn(-c3ccc(F)cc3)c2=O)ccc(Oc2ccnc(NC(=O)C3CC3)c2)c1C
Cell line: L929
Technique: CCK-8
test | setting | viability
necroptosis protection | 1.25 µM, with: TNF-α-induced | 73.2%
– | 50 µM, with: zVAD | 70.6% and 71.2% and 72.8%
necroptosis protection | 0.156 µM, with: TNF-α-induced | 54.7%

Further values, each from its own experiment
pknB: Serine/threonine-protein kinase PknB (pknB, Mycobacterium tuberculosis, UniProt P9WI81)
Sequence of UniProt P9WI81 (whole entry, looked up): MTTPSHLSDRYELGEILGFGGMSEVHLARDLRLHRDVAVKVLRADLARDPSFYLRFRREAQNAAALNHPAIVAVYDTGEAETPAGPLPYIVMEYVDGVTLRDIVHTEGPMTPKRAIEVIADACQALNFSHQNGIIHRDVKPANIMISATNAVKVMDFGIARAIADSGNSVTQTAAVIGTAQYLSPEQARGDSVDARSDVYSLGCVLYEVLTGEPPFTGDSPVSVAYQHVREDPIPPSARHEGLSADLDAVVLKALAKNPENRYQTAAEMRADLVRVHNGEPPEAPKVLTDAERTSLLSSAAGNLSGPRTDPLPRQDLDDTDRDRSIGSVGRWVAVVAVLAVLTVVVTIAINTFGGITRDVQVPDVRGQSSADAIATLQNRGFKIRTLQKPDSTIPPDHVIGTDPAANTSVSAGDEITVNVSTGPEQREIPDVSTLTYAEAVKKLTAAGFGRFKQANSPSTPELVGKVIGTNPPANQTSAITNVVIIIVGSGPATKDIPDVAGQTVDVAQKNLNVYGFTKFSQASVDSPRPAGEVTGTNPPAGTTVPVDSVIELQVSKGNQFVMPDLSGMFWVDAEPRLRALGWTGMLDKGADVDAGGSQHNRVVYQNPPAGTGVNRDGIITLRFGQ
Structure (SMILES) | tested on | test | system | setting | how to read | quantity | result
C=CCN1C(=O)C(O)(C(=O)O)Oc2cc(F)ccc21 (stereo not drawn) | Arabidopsis thaliana | – | Col-0 | 50 µg/mL, seed germination, single repetition | – | hypocotyl length | 1.52 cm and 1.51 cm and 1.53 cm and 1.55 cm
NC(=O)NCCCCCCN1CCC23c4c5ccc(O)c4OC2c2nc4ccccc4cc2CC3(O)C1C5 (stereo not drawn) | Delta-type opioid receptor, with β-arrestin2 (OPRD1, Homo sapiens, UniProt P41143) | agonist | – | – | – | EC50 | 0.00123 mM
Cc1ccc(O)c(C)c1-c1cnc2[nH]c(-c3cnc(N4CCC(CN5CCN(c6ccc7c8c(cccc68)C(=O)N7C6CCC(=O)NC6=O)CC5)CC4)nc3)cc2c1C#N (racemic) | HCC1569 | in-cell western, item: CDK1 phospho-Thr14 | – | 333.33 nM | – | pCDK1 (Thr14) level | 18.8% and 9.91%
C#CCN1C(=O)C(O)(C(=O)O)Oc2cc(F)ccc21 (stereo not drawn) | Acetolactate synthase catalytic subunit, mitochondrial (Saccharomyces cerevisiae S288c, UniProt P07342) | binding, microscale thermophoresis | – | – | – | Kd | 12 mM
O=C1CC[C@@H](Nc2ccc(N3CCNCC3)c(F)c2)C(=O)N1 | Protein cereblon (CRBN, Homo sapiens, UniProt Q96SW2) | binding | – | 1111.11 nM | – | inhibition | 51.9% and 67%
CC[C@@]1(c2cccc(-c3c(F)cncc3OC)c2)C2=C(Nc3n[nH]cc31)[C@H](F)C(C)(C)CC2=O (single isomer, unassigned) | pknB | binding, competition with immobilised ligand | – | 1 µM | – | remaining binding | 75%
N=C(N)NCCCCCCN1CCC23c4c5ccc(O)c4OC2c2nc4ccccc4cc2CC3(O)C1C5 (stereo not drawn) | OPRM1 (Homo sapiens, UniProt P35372) | competitor, radioligand binding | – | 100 nM | – | specific binding | 52.4% and 93.1% and 75.4%
CCCNC(=O)COc1ccc(Br)c(C)c1 | SLC6A19 (Homo sapiens, UniProt Q695T7) | inhibitor, FLIPR membrane potential | CHO-BC cells | 0.01 µM, unit not given | reference: uninhibited cells | remaining transport activity | 0.886
CC[C@@]1(c2ccccc2)C2=C(CC(C)(C)CC2=O)Nc2n[nH]cc21 | pknB | binding, competition with immobilised ligand | – | 1 µM | – | remaining binding | 100%
CC(C)OC(=O)[C@H](CCC(=O)C=[N+]=[N-])NC(=O)[C@H](Cc1c[nH]c2ccccc12)NC(=O)C12CCN(CC1)CC2 | P493B lymphoma cells | – | human plasma | concentration not given, plasma fraction of partition | – | DON concentration | 0 nmol/mL

A few entries again (further values, each from its own experiment):
Structure (SMILES) | tested on | test | system | setting | how to read | quantity | result
CC[C@@]1(c2cccc(-c3c(F)cncc3OC)c2)C2=C(Nc3n[nH]cc31)[C@H](F)C(C)(C)CC2=O (single isomer, unassigned) | pknB | binding, competition with immobilised ligand | – | 1 µM | – | remaining binding | 75%
CCCNC(=O)COc1ccc(Br)c(C)c1 | SLC6A19 (Homo sapiens, UniProt Q695T7) | inhibitor, FLIPR membrane potential | CHO-BC cells | 0.01 µM, unit not given | reference: uninhibited cells | remaining transport activity | 0.886
C#CCN1C(=O)C(O)(C(=O)O)Oc2cc(F)ccc21 (stereo not drawn) | Acetolactate synthase catalytic subunit, mitochondrial (Saccharomyces cerevisiae S288c, UniProt P07342) | binding, microscale thermophoresis | – | – | – | Kd | 12 mM
